Measurements of several laboratories.
Protocols differ between the studies behind these lines. ± gives the spread as reported. Converted amounts (≈) assume the structure as drawn.

CC(=O)N[C@H](CCCCNC(=O)C(C)F)C(=O)N[C@@H](CS)C(=O)N[C@@H](CS)C(=O)N[C@@H](CCC(=O)O)C(=O)N[C@@H](Cc1c[nH]cn1)C(=O)N[C@H](Cc1ccccc1)C(=O)N[C@@H](CCCNC(=N)N)C(=O)N[C@@H](Cc1c[nH]c2ccccc12)C(=O)N[C@@H](CS)C(=O)N[C@@H](CCCNC(=N)N)C(=O)N1CCC[C@H]1C(=O)N[C@H](C(N)=O)C(C)C (stereo partly drawn) [fluorine-18 labelled]  tissue uptake (C57BL/6 mice, male, B16-F10 tumour, kidney; intravenous, 1 h): 8.82 ± 0.76 %ID/g
CSCC[C@@H]1NC(=O)[C@H](CC(=O)O)NC(=O)CNC(=O)[C@H](CCCNC(=N)N)NC(=O)[C@H](C)NC(=O)[C@H](CCC(=O)O)NC(=O)[C@H](CCCNC(=N)N)NC(=O)[C@@H]2CSSC[C@@H]3NC(=O)[C@H](CO)NC(=O)[C@H]([C@@H](C)O)NC(=O)[C@@H]4CCCN4C(=O)[C@H](C)NC(=O)[C@H](Cc4c[nH]c5ccccc45)NC(=O)[C@H](CC(=O)O)NC(=O)CNC(=O)[C@H](CCCNC(=N)N)NC(=O)CNC(=O)[C@H](CCC(N)=O)NC(=O)[C@@H]4CCCN4C(=O)[C@@H](NC(=O)CNC(=O)C(C)F)CSSC[C@H](NC(=O)CNC(=O)[C@H](C)NC(=O)[C@H](CC(C)C)NC(=O)[C@H](CSSC[C@@H](C(=O)NCC(N)=O)NC(=O)[C@H]([C@@H](C)O)NC(=O)[C@H](CCCNC(=N)N)NC(=O)[C@@H]4CCCN4C1=O)NC(=O)[C@H](CC(=O)O)NC(=O)[C@H](CO)NC(=O)[C@H](CC(=O)O)NC(=O)[C@H](CCC(N)=O)NC(=O)[C@H](CO)NC3=O)C(=O)N[C@@H](C(C)C)C(=O)N2 (stereo partly drawn) [fluorine-18 labelled]  tissue uptake (nude mice U-87 MG xenograft, lungs; intravenous, 0.5 h): 1.73 ± 0.27 %ID/g
CCCCCCCCCCCCCCCCCC[N+](C)(C)CCCCCCCCCCCCCCCCCC  unbound fraction in blood (ultrafiltration; human serum): 0.04
NC(=O)c1nc(F)c[nH]c1=O  solubility (UV-Vis spectrophotometry; supercritical CO2; 120 min, 308 K, 21 MPa, 874.40 kg/m^3): 0.722 mg/mL (≈ 4.6 mM)
CC1N=C(c2ccccc2F)c2cc(Nc3ccccc3F)ccc2NC1=O (stereo not drawn)  aqueous solubility (shake flask; PBS; 24 h, pH 7.4): 27 µM (≈ 10.2 µg/mL)
CS(=O)(=O)CCCn1c(Cn2c(=O)n(CC(F)(F)F)c3ccncc32)cc2cc(Cl)ccc21  patients with low MCH (RSV-infected infants; concentration not given, low dose cohorts): 17%
Clc1ccc(-c2c(Cl)ccc(Cl)c2Cl)c(Cl)c1Cl  enantiomeric fraction (rat liver microsomes; 50 µM, 30 min, remaining parent PCB): 0.39
C#C[C@]1(CO)O[C@@H](n2cnc3c(N)nc(F)nc32)C[C@@H]1O  participants with drug-related adverse events (healthy adults; oral, 2.25 mg once daily, alone or coadministered, with: doravirine 100 mg once daily): 10%
N#Cc1ccc(N2N=C3c4ccc(C(=O)N5CCC(O)CC5)nc4CC[C@@H]3[C@@H]2C2CCCC2)cc1Cl  AUC0-inf ratio (human, plasma; concentration not given, with: itraconazole; relative to: with itraconazole over alone): ~2 fold
Cc1cc(C(C#N)c2ccc(Cl)cc2)c(Cl)cc1NC(=O)c1cc(I)cc(I)c1O (stereo not drawn)  MRT (HPLC, non-compartmental; Corriedale lambs, parasitized, plasma; subcutaneous, 5 mg/kg): 21.9 ± 2.28 days
CN[C@@](C)(C[18F])C(=O)O  tissue uptake (SCID mouse SK-OV-3 xenograft, brain; 60 min, post injection): 0.2 ± 0.03 %ID/g
[123I]c1cncc(OC[C@@H]2CCN2)c1  tissue/plasma ratio (SPECT; human, occipital lobe; intravenous bolus plus infusion, 7.8 mCi; relative to: tissue over plasma): 11.4

Repeated from above:
CSCC[C@@H]1NC(=O)[C@H](CC(=O)O)NC(=O)CNC(=O)[C@H](CCCNC(=N)N)NC(=O)[C@H](C)NC(=O)[C@H](CCC(=O)O)NC(=O)[C@H](CCCNC(=N)N)NC(=O)[C@@H]2CSSC[C@@H]3NC(=O)[C@H](CO)NC(=O)[C@H]([C@@H](C)O)NC(=O)[C@@H]4CCCN4C(=O)[C@H](C)NC(=O)[C@H](Cc4c[nH]c5ccccc45)NC(=O)[C@H](CC(=O)O)NC(=O)CNC(=O)[C@H](CCCNC(=N)N)NC(=O)CNC(=O)[C@H](CCC(N)=O)NC(=O)[C@@H]4CCCN4C(=O)[C@@H](NC(=O)CNC(=O)C(C)F)CSSC[C@H](NC(=O)CNC(=O)[C@H](C)NC(=O)[C@H](CC(C)C)NC(=O)[C@H](CSSC[C@@H](C(=O)NCC(N)=O)NC(=O)[C@H]([C@@H](C)O)NC(=O)[C@H](CCCNC(=N)N)NC(=O)[C@@H]4CCCN4C1=O)NC(=O)[C@H](CC(=O)O)NC(=O)[C@H](CO)NC(=O)[C@H](CC(=O)O)NC(=O)[C@H](CCC(N)=O)NC(=O)[C@H](CO)NC3=O)C(=O)N[C@@H](C(C)C)C(=O)N2 (stereo partly drawn) [fluorine-18 labelled]  tissue uptake (nude mice U-87 MG xenograft, lungs; intravenous, 0.5 h): 1.73 ± 0.27 %ID/g
